{"data": "Measurements gathered from unrelated publications", "note": "Parts stem from different laboratories: compare values within a part only. “And” joins repeats or separate records; there may be more than shown.", "sequence of UniProt P35916 (whole entry, looked up)": "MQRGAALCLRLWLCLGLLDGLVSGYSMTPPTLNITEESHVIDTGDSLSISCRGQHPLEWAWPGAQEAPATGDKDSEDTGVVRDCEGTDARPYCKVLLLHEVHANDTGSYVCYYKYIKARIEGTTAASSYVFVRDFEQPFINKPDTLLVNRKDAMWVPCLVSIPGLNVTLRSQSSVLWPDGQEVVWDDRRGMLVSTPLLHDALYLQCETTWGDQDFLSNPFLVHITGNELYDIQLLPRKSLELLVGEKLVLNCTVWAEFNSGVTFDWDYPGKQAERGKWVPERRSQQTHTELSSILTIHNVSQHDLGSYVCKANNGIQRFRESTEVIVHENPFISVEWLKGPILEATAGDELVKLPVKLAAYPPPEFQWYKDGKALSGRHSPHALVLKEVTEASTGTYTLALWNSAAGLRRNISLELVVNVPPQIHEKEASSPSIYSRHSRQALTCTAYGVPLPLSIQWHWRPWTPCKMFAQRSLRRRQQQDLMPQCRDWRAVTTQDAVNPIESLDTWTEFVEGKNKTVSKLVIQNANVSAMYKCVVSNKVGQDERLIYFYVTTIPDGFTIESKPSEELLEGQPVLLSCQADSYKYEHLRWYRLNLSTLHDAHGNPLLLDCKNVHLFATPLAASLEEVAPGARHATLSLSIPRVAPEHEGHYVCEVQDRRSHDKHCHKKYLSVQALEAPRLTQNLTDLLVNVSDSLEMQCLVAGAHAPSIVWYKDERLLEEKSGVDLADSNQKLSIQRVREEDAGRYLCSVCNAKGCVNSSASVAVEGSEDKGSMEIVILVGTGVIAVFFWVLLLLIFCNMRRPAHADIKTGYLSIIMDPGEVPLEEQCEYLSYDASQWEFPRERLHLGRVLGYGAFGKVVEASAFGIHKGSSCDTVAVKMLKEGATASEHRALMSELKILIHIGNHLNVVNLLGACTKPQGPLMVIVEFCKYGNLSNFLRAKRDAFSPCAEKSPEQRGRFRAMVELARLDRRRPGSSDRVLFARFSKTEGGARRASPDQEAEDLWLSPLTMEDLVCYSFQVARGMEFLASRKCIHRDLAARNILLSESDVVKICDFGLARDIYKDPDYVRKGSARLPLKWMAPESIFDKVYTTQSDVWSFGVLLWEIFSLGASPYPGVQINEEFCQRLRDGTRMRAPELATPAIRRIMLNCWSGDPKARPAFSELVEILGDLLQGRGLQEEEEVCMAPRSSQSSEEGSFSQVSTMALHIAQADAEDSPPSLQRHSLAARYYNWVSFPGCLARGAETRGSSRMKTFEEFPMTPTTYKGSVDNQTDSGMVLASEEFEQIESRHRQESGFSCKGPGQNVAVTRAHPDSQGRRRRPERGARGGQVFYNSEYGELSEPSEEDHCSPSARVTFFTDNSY", "sequence of UniProt P11802 (whole entry, looked up)": "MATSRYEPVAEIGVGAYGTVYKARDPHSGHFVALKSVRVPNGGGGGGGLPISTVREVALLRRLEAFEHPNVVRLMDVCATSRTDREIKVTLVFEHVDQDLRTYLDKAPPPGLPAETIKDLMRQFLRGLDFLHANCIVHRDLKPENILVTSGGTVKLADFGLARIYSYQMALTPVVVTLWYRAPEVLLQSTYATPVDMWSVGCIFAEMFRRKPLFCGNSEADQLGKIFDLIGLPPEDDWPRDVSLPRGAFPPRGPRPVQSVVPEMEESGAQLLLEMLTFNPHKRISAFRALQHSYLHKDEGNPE", "sequence of UniProt P45985 (whole entry, looked up)": "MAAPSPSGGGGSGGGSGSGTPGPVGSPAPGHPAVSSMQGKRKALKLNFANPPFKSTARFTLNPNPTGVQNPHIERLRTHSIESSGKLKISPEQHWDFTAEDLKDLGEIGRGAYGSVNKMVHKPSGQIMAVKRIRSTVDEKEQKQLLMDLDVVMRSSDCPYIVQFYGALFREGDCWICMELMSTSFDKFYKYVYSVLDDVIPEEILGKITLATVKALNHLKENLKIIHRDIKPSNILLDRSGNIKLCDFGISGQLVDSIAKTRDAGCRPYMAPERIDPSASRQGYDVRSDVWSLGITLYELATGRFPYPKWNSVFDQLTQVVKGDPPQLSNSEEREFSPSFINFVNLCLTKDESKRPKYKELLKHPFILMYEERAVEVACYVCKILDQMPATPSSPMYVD", "sequence of UniProt Q96RR4 (whole entry, looked up)": "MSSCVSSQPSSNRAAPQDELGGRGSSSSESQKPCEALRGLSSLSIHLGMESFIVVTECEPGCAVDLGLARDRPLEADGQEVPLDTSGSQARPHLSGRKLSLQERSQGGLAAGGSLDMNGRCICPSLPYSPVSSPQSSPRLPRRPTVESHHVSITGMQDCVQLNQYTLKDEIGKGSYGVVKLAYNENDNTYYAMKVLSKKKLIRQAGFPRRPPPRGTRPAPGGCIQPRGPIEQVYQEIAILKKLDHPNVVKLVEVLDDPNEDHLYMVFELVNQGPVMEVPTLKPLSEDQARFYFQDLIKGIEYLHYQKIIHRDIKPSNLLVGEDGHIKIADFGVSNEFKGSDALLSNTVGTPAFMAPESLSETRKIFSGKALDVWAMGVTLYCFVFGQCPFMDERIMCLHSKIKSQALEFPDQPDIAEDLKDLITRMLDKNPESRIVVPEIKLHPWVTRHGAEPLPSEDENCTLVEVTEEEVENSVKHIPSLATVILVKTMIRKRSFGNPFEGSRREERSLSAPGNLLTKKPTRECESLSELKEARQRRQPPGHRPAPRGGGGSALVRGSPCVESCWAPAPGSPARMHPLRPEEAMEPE", "sequence of UniProt Q13153 (whole entry, looked up)": "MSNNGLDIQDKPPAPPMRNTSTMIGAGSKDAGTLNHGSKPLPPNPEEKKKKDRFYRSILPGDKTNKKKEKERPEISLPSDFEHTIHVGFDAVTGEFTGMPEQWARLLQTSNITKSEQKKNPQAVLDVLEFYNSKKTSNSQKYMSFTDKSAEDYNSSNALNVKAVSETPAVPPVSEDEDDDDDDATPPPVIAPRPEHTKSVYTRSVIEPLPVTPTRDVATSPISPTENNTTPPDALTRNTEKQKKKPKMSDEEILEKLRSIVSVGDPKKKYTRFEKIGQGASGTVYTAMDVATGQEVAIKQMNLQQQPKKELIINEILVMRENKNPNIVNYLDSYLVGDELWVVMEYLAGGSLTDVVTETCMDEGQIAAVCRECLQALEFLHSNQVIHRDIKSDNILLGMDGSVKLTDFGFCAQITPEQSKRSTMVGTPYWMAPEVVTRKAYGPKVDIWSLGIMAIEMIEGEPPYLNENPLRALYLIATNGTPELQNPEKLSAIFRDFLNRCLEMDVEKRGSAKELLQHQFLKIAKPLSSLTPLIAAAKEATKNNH", "sequence of UniProt P46734 (whole entry, looked up)": "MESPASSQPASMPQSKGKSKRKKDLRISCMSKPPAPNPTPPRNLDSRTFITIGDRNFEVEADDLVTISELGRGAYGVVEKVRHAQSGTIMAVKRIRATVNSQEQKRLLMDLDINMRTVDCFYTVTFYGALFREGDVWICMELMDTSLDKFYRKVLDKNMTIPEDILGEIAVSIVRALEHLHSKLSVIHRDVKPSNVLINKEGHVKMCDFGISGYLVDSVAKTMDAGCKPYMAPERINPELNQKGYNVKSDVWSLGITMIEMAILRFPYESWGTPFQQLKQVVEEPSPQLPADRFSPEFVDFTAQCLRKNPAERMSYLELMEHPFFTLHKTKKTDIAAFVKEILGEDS"}
{"data": "Study 1", "Compound": "CCC(=O)N[C@H]1CC[C@@H](C(=O)N(C)c2ccc(-c3nc4ccccc4o3)cc2)C1", "effect on": "cell-free assay", "method": "competition with immobilised ligand", "concentration": "1 µM"}
{"target": "PRKAA1 (Homo sapiens, UniProt Q13131)", "remaining binding": "99%"}
{"target": "TEK (Homo sapiens, UniProt Q02763)", "remaining binding": "85%"}
{"target": "CSNK1D (Homo sapiens, UniProt P48730)", "remaining binding": "96%"}
{"target": "CAMKK1 (Homo sapiens, UniProt Q8N5S9)", "remaining binding": "85%"}
{"target": "PAK1 (Homo sapiens, UniProt Q13153)", "remaining binding": "82%"}
{"target": "ACVRL1 (Homo sapiens, UniProt P37023)", "remaining binding": "77%"}
{"target": "Cyclin-dependent kinase 4, with cyclin D3 (CDK4, Homo sapiens, UniProt P11802)", "remaining binding": "88%"}
{"target": "MAP2K3 (Homo sapiens, UniProt P46734)", "remaining binding": "77%"}
{"target": "FLT4 (Homo sapiens, UniProt P35916)", "remaining binding": "97%"}
{"target": "BLK (Homo sapiens, UniProt P51451)", "remaining binding": "97%"}
{"target": "PIK3CA (Homo sapiens, UniProt P42336, E542K)", "remaining binding": "77%"}
{"target": "MAP2K4 (Homo sapiens, UniProt P45985)", "remaining binding": "95%"}
{"target": "EGFR (Homo sapiens, UniProt P00533, del752-759)", "remaining binding": "100%"}
{"target": "CAMKK2 (Homo sapiens, UniProt Q96RR4)", "remaining binding": "91%"}
{"target": "SIK3 (Homo sapiens, UniProt Q9Y2K2)", "remaining binding": "84%"}
{"data": "Study 2", "Compound": "C=CCc1ccc(O)c(-c2cc(CC=C)ccc2O)c1", "target": "Anoctamin-1 (ANO1, Homo sapiens, UniProt Q5XXA6, del476-501)", "effect on": "chloride current", "method": "whole-cell patch clamp", "sequence of UniProt Q5XXA6 (whole entry, unmodified, looked up)": "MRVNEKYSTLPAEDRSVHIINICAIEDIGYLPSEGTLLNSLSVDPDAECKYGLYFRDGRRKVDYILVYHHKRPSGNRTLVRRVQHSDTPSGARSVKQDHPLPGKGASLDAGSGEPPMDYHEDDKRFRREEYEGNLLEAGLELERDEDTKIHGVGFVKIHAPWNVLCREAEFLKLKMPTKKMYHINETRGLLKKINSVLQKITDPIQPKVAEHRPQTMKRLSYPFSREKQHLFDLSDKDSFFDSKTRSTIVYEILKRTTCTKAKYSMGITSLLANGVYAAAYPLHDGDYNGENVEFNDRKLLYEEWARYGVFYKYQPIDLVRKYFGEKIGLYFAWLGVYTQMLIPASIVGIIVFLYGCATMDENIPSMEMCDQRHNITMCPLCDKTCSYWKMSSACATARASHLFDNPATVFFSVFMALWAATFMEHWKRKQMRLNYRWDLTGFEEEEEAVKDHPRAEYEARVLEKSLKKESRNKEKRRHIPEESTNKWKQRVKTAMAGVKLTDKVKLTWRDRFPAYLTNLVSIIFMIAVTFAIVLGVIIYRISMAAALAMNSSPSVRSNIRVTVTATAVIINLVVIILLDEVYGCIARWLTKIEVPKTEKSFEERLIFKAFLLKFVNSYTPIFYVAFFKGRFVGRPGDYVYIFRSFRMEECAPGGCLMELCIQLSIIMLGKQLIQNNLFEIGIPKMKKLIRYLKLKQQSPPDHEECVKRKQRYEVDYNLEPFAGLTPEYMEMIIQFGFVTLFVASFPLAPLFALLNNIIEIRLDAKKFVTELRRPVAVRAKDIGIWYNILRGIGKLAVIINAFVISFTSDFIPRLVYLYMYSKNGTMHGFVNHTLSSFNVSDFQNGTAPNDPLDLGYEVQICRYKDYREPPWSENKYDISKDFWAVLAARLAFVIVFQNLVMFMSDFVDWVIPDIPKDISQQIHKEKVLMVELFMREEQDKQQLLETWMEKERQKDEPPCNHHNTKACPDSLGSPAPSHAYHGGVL"}
{"concentration": "30 µM", "setting": "60 mV, 300 nM free Ca2+", "normalised current": 0.154}
{"concentration": "30 µM", "setting": "-40 mV, 300 nM free Ca2+", "normalised current": -0.0275}
{"concentration": "1 µM", "setting": "-40 mV, 300 nM free Ca2+", "normalised current": -0.0745}
{"concentration": "30 µM", "setting": "-20 mV, 300 nM free Ca2+", "normalised current": -0.0164}
{"concentration": "100 µM", "setting": "-80 mV, 300 nM free Ca2+", "normalised current": -0.0263}
{"concentration": "1 µM", "setting": "100 mV, 300 nM free Ca2+", "normalised current": 0.934}
{"concentration": "10 µM", "setting": "0 mV, 300 nM free Ca2+", "normalised current": -0.000189}
{"concentration": "100 µM", "setting": "0 mV, 300 nM free Ca2+", "normalised current": -0.000189}
{"concentration": "1 µM", "setting": "-100 mV, 300 nM free Ca2+", "normalised current": -0.103}
{"concentration": "3 µM", "setting": "-60 mV, 300 nM free Ca2+", "normalised current": -0.0871}
{"concentration": "30 µM", "setting": "-60 mV, 300 nM free Ca2+", "with": "honokiol and magnolol 3 µM", "normalised current": -0.0201}
{"concentration": "10 µM", "setting": "40 mV, 300 nM free Ca2+", "normalised current": 0.141}
{"concentration": "30 µM", "setting": "-40 mV, 300 nM free Ca2+", "with": "honokiol and magnolol 3 µM", "normalised current": -0.0161}
{"data": "Study 3", "organism": "Sarcocystis neurona", "effect on": "parasite growth", "concentration": "10 µM", "time": "96 h", "setting": "first screen", "relative to": "untreated"}
{"Structure (SMILES)": "CO[C@H]1O[C@@H]2O[C@@]3(C)CC[C@H]4[C@H](C)CC[C@@H]([C@H]1C)[C@@]24OO3", "log2 fold change": -1.7}
{"Structure (SMILES)": "NC[C@H]1CC[C@H](C(=O)Oc2ccc(CCC(=O)O)cc2)CC1", "log2 fold change": -0.11}
{"Structure (SMILES)": "CCCCc1nc(Cl)c(CO)n1Cc1ccc(-c2ccccc2-c2nn[nH]n2)cc1", "log2 fold change": 0.14}
{"Structure (SMILES)": "CN1CCN(CCCN2c3ccccc3Sc3ccc(C(F)(F)F)cc32)CC1", "log2 fold change": -0.21}
{"Structure (SMILES)": "Cc1cccc(C)c1NC(=O)C(C)N (centres unmarked)", "log2 fold change": -0.064}
{"Structure (SMILES)": "CN(C)[C@@H]1C(O)=C(C(N)=O)C(=O)[C@@]2(O)C(O)=C3C(=O)c4c(O)cccc4[C@@](C)(O)[C@H]3[C@H](O)[C@@H]12", "log2 fold change": -0.21}
{"Structure (SMILES)": "C#C[C@]1(O)CC[C@H]2[C@@H]3[C@H](C)CC4=C(CCC(=O)C4)[C@H]3CC[C@@]21C", "log2 fold change": -0.14}
{"Structure (SMILES)": "O=C1[C@H](CC[C@H](O)c2ccc(F)cc2)[C@@H](c2ccc(O)cc2)N1c1ccc(F)cc1", "log2 fold change": -0.65}
{"Structure (SMILES)": "CC(C)(S)[C@@H](N)C(=O)O", "log2 fold change": 0.38}
{"Structure (SMILES)": "CO[C@H]1/C=C/O[C@@]2(C)Oc3c(C)c(O)c4c(O)c(c5c(nc6cc(C)ccn65)c4c3C2=O)NC(=O)/C(C)=C\\C=C\\[C@H](C)[C@H](O)[C@@H](C)[C@@H](O)[C@@H](C)[C@H](OC(C)=O)[C@@H]1C", "log2 fold change": 0.07}
{"Structure (SMILES)": "Nc1nc(N)c2nc(-c3ccccc3)c(N)nc2n1", "log2 fold change": 0.57}
{"Structure (SMILES)": "CCOC(=O)[C@@]1(CCCCCCOc2ccc(Cl)cc2)CO1", "log2 fold change": 0.25}
{"Structure (SMILES)": "CC(C)NCC(O)COc1cccc2[nH]ccc12 (centres unmarked)", "log2 fold change": 0.39}
{"Structure (SMILES)": "CCC1=C(C)CN(C(=O)NCCc2ccc(S(=O)(=O)NC(=O)N[C@H]3CC[C@H](C)CC3)cc2)C1=O", "log2 fold change": 0.2}
{"Structure (SMILES)": "CCOC(=O)[C@H](CCc1ccccc1)N[C@H]1CCc2ccccc2N(CC(=O)O)C1=O", "log2 fold change": 0.22}
{"Structure (SMILES)": "CCN(CC)CCOC(=O)c1ccc(N)cc1", "log2 fold change": 0.29}
{"Structure (SMILES)": "CCCCC(=O)N(Cc1ccc(-c2ccccc2-c2nnn[nH]2)cc1)[C@H](C(=O)O)C(C)C", "log2 fold change": -0.14}
{"Structure (SMILES)": "CSc1ccc2c(c1)N(CCC1CCCCN1C)c1ccccc1S2 (centres unmarked)", "log2 fold change": -0.57}
{"data": "Study 4", "target": "Calcium/calmodulin-dependent protein kinase type II subunit alpha (CAMK2A, Homo sapiens, UniProt Q9UQM7)", "effect on": "enzyme activity", "action": "inhibitor", "concentration": "10 µM", "sequence of UniProt Q9UQM7 (whole entry, looked up)": "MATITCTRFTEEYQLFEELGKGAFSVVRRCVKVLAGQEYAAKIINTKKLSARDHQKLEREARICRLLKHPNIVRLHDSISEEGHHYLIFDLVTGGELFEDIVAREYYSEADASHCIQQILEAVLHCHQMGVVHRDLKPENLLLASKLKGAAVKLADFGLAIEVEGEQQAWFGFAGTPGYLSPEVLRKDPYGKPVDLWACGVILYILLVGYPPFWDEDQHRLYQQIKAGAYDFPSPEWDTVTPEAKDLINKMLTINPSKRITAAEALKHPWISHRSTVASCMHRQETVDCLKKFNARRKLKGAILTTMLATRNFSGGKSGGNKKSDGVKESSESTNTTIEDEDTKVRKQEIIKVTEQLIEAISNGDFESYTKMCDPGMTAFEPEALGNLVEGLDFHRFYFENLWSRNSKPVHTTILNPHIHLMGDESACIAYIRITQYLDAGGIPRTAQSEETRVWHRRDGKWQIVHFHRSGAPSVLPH"}
{"Structure (SMILES)": "OC1CCN2Cc3ccccc3N=C12 (racemic)", "inhibition": "10%"}
{"Structure (SMILES)": "Cc1ncc(CSSCc2cnc(C)c(O)c2CO)c(CO)c1O", "inhibition": "6%"}
{"Structure (SMILES)": "CC(=O)c1ccc(C)cc1O", "inhibition": "-8%"}
{"Structure (SMILES)": "CC(C)=CCC1=C(O)[C@](O)(CC=C(C)C)C(=O)C(C(=O)CC(C)C)=C1O", "inhibition": "-55%"}
{"Structure (SMILES)": "CC(=O)NCCCCCN", "inhibition": "47%"}
{"Structure (SMILES)": "CC(C)(C)NC[C@H](O)COc1nsnc1N1CCOCC1", "inhibition": "5%"}
{"Structure (SMILES)": "O=C(O)c1c[nH]c2ccccc12", "inhibition": "-18%"}
{"Structure (SMILES)": "Oc1ccc2c(c1)OC[C@H]1c3cc4c(cc3O[C@@H]21)OCO4", "inhibition": "-0.01% and 0.57%"}
{"Structure (SMILES)": "COc1cc(O[C@@H]2O[C@H](CO[C@@H]3O[C@H](CO)[C@@H](O)[C@H](O)[C@H]3O)[C@@H](O)[C@H](O)[C@H]2O)c2c(O)c3c(=O)oc(C)cc3cc2c1", "inhibition": "-10%"}
{"Structure (SMILES)": "CC(=O)OC(C)(C)[C@@H]1Cc2c(ccc3ccc(=O)oc23)O1", "inhibition": "-15%"}
{"Structure (SMILES)": "OB1OCc2cc(F)ccc21", "inhibition": "-2%"}
{"Structure (SMILES)": "CC[N+](C)(C)Cc1ccccc1Br", "inhibition": "-5%"}
{"Structure (SMILES)": "C[C@@H](CO)CCC[C@@H](C)[C@H]1CC[C@H]2[C@@H]3CC=C4C[C@@H](O)CC[C@]4(C)[C@H]3CC[C@]12C", "inhibition": "-2%"}
{"note": "Excerpt of the above (study 1):"}
{"target": "TEK (Homo sapiens, UniProt Q02763)", "remaining binding": "85%"}
{"target": "CSNK1D (Homo sapiens, UniProt P48730)", "remaining binding": "96%"}
{"target": "CAMKK1 (Homo sapiens, UniProt Q8N5S9)", "remaining binding": "85%"}
{"target": "PAK1 (Homo sapiens, UniProt Q13153)", "remaining binding": "82%"}
{"target": "ACVRL1 (Homo sapiens, UniProt P37023)", "remaining binding": "77%"}
{"target": "Cyclin-dependent kinase 4, with cyclin D3 (CDK4, Homo sapiens, UniProt P11802)", "remaining binding": "88%"}
{"target": "MAP2K3 (Homo sapiens, UniProt P46734)", "remaining binding": "77%"}
